Measurements pooled from the literature.
Each numbered part is a random draw from the data of one study; scales do not carry over between parts. Several values in a cell are separate wells, animals, samples, runs or records.
Sequence of UniProt P07948 (whole entry, looked up): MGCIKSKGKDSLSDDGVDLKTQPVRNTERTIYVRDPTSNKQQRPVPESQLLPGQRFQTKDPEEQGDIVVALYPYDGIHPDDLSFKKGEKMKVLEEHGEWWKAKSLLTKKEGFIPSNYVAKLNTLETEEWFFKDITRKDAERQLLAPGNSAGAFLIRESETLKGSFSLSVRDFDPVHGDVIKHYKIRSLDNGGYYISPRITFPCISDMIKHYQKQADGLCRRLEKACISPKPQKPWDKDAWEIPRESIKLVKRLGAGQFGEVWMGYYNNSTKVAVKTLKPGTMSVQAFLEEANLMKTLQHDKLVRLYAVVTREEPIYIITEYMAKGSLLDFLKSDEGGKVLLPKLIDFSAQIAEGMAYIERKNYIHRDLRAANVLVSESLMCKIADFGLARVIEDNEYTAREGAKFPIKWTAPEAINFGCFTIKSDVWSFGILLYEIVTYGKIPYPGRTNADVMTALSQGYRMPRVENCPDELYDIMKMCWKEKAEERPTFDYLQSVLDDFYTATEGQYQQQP
Sequence of UniProt P51451 (whole entry, looked up): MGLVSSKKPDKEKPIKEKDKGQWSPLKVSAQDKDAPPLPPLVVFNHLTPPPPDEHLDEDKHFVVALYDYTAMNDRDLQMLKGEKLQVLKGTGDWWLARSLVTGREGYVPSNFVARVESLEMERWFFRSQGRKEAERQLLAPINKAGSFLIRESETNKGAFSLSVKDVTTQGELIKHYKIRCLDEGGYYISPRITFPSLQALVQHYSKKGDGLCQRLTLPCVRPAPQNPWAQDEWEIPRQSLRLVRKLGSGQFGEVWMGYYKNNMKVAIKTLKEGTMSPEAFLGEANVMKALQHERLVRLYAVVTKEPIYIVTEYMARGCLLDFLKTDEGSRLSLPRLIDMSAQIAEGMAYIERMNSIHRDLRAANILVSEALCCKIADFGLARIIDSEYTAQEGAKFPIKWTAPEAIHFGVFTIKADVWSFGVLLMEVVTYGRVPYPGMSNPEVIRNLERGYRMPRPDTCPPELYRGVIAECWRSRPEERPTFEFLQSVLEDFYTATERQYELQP
Sequence of UniProt Q9UHD2 (whole entry, looked up): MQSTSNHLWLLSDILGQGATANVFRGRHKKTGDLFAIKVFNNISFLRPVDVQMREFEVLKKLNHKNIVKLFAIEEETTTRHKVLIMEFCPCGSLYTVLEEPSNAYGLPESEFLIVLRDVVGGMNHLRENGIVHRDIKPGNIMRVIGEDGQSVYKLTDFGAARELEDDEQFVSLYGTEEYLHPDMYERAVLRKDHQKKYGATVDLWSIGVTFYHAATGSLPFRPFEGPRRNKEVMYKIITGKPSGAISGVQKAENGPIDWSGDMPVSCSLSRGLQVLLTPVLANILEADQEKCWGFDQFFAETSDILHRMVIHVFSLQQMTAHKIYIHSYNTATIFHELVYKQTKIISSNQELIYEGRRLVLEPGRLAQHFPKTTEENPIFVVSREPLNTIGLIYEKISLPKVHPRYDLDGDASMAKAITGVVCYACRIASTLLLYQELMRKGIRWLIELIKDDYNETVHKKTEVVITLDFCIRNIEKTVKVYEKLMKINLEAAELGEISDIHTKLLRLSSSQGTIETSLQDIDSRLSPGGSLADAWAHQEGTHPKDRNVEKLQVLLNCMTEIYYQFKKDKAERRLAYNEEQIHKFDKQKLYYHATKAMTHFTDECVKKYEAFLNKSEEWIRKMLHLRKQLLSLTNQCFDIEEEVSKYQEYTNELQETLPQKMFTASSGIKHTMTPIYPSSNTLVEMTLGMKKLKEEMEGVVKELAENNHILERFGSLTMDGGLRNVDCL
Sequence of UniProt P51955 (whole entry, looked up): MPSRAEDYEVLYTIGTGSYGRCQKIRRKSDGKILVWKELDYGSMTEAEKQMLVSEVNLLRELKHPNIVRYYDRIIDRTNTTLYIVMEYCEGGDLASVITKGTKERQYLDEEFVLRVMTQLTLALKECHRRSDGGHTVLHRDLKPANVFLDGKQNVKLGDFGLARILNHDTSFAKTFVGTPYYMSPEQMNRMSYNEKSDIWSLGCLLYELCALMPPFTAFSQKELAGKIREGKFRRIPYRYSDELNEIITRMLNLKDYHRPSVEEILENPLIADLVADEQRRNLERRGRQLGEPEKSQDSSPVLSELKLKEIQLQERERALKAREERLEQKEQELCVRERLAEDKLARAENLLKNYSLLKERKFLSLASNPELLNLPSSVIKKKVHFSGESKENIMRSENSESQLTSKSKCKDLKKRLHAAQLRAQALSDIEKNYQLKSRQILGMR

Series 1 — read-out: enzyme activity; action: inhibitor; concentration: 0.5 µM; baseline: control
Target: Dual specificity protein kinase TTK (TTK, Homo sapiens, UniProt P33981)
Sequence of UniProt P33981 (whole entry, looked up): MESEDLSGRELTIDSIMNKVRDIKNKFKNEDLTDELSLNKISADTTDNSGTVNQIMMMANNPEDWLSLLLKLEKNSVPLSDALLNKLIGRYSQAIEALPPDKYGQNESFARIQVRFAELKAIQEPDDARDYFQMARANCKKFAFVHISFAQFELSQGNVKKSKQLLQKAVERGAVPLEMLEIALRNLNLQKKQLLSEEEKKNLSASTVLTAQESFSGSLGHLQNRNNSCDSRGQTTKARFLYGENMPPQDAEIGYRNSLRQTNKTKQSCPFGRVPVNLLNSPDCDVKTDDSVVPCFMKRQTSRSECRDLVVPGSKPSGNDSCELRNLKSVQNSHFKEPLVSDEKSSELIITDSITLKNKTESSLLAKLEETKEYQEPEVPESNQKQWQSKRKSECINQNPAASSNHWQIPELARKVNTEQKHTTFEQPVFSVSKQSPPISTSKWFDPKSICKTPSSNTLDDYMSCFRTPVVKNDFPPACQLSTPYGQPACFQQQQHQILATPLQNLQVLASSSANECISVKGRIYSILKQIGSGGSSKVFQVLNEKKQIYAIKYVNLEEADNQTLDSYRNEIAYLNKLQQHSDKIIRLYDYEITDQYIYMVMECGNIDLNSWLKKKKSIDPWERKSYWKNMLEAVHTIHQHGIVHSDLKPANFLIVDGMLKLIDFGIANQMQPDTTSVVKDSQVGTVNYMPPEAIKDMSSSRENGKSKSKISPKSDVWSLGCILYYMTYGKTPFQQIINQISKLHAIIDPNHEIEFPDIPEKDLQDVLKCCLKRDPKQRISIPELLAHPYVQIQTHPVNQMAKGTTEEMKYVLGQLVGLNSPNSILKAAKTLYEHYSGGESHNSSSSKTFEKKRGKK
For `NC(=O)c1ccc(N(C(N)=O)c2c(F)cccc2F)nc1-c1ccc(F)cc1F`, the remaining activity was 98.8%.
For `COc1cc(Nc2c(C#N)cnc3cc(OCCCN4CCN(C)CC4)c(OC)cc23)c(Cl)cc1Cl`, the remaining activity was 110%.
`O=S(=O)(NCCNC/C=C/c1ccc(Br)cc1)c1cccc2cnccc12` has a remaining activity of 99.7%.
With `Fc1ccc(-c2nc3n(c2-c2ccncc2)CCS3)cc1` the remaining activity was 100%.
`CC#CC(=O)Nc1cc2c(Nc3ccc(F)c(Cl)c3)ncnc2cn1` gave a remaining activity of 104%.
With `CCc1[nH]c(-c2ccc(OC)cc2)nc1-c1ccncc1` the remaining activity was 105%.
The remaining activity of `CCCC(=O)Oc1ccc2[nH]c(C(=O)c3cc4ccccc4[nH]3)cc2c1` is reported as 85.7%.
With `COc1ccc(S(=O)(=O)N(CCO)c2ccccc2CN(C)CC=Cc2ccc(Cl)cc2)cc1` the remaining activity was 83.3%.
With `CC(C)(C)n1nc(Cc2cccc3ccccc23)c2c(N)ncnc21` the remaining activity was 84.5%.
`Cc1ccc(NC2=CC(=O)c3sc(C)nc3C2=O)cc1` has a remaining activity of 98.9%.
`CC(=O)c1ccc(N2CCOCC2)cc1O` has a remaining activity of 103%.
For `Cc1cc(Nc2nc(-c3ccccc3)nc3ccccc23)n[nH]1`, the remaining activity was 102%.
`Nc1ncnc2c1cnn2-c1ccccc1` has a remaining activity of 90.6%.
`CC[n+]1c(/C=C/N(C)c2ccccc2)n(-c2ccccc2)c2ccc(-c3nc4ccccc4s3)cc21` gave a remaining activity of 96.6%.
With `O=C1Cc2c([nH]c3ccc([N+](=O)[O-])cc23)-c2ccccc2N1` the remaining activity was 87.4%.
`Oc1ccc(Nc2nc(-c3ccc(Cl)cc3)cs2)cc1` gave a remaining activity of 87.6%.
`N#CC(=C(N)Sc1ccc(N)cc1)c1ccccc1C(F)(F)F` has a remaining activity of 93.6%.
`Nc1nccc(-c2c(-c3ccc(F)cc3)ncn2C2CCNCC2)n1` gave a remaining activity of 107%.
For `Cc1cncc2cccc(S(=O)(=O)N3CCCN(C(=O)CN)C[C@@H]3C)c12`, the remaining activity was 111%.
For `O=C1NC(=O)C(c2c[nH]c3ccccc23)=C1c1c[nH]c2ccccc12`, the remaining activity was 106%.
With `CSc1nc(-c2ccnc(N[C@@H](C)c3ccccc3)c2)c(-c2ccc(F)cc2)[nH]1` (racemic) the remaining activity was 102%.

Series 2 — concentration: 1 µM
SMILES: CNCc1ccccc1-c1csc([C@@H](C)Nc2nc(C)nc3cc(OC)c(OC)cc23)c1
The remaining binding was 99% (Rhodopsin kinase GRK1 (GRK1, Homo sapiens, UniProt Q15835); cell-free assay, competition with immobilised ligand).
Serine/threonine-protein kinase SIK3 (SIK3, Homo sapiens, UniProt Q9Y2K2); cell-free assay, competition with immobilised ligand — remaining binding: 90%.
The remaining binding was 83% (Tyrosine-protein kinase ABL1, phosphorylated (ABL1, Homo sapiens, UniProt P00519, T315I); cell-free assay, competition with immobilised ligand).
It gave 90% for remaining binding (Fibroblast growth factor receptor 3 (FGFR3, Homo sapiens, UniProt P22607); cell-free assay, competition with immobilised ligand).
It gave 100% for remaining binding (Wee1-like protein kinase (WEE1, Homo sapiens, UniProt P30291); cell-free assay, competition with immobilised ligand).
The remaining binding was 100% (Tyrosine-protein kinase Fes/Fps (FES, Homo sapiens, UniProt P07332); cell-free assay, competition with immobilised ligand).
For Fibroblast growth factor receptor 2 (FGFR2, Homo sapiens, UniProt P21802); cell-free assay, competition with immobilised ligand: remaining binding read 85%.
For Activin receptor type-1 (ACVR1, Homo sapiens, UniProt Q04771); cell-free assay, competition with immobilised ligand: remaining binding read 100%.
For Ribosomal protein S6 kinase alpha-1, N-terminal kinase domain (RPS6KA1, Homo sapiens, UniProt Q15418); cell-free assay, competition with immobilised ligand: remaining binding read 76%.
For Ribosomal protein S6 kinase alpha-4, C-terminal kinase domain (RPS6KA4, Homo sapiens, UniProt O75676); cell-free assay, competition with immobilised ligand: remaining binding read 79%.
For Serine/threonine-protein kinase 32A (STK32A, Homo sapiens, UniProt Q8WU08); cell-free assay, competition with immobilised ligand: remaining binding read 76%.
It gave 78% for remaining binding (Tyrosine-protein kinase ABL1, phosphorylated (ABL1, Homo sapiens, UniProt P00519, F317I); binding).
The remaining binding was 53% (Maternal embryonic leucine zipper kinase (MELK, Homo sapiens, UniProt Q14680); cell-free assay, competition with immobilised ligand).
It gave 100% for remaining binding (Calcium/calmodulin-dependent protein kinase kinase 2 (CAMKK2, Homo sapiens, UniProt Q96RR4); cell-free assay, competition with immobilised ligand).
The remaining binding was 91% (Tyrosine-protein kinase Blk (BLK, Homo sapiens, UniProt P51451); cell-free assay, competition with immobilised ligand).

Series 3 — concentration: 10 µM
SMILES: CCc1c(C)nc(SCC(=O)Nc2nc(-c3ccc(OC)cc3)cs2)[nH]c1=O
ANO1 del476-501/F628A/F803A: Anoctamin-1 (ANO1, Homo sapiens, UniProt Q5XXA6, del476-501/F628A/F803A)
Sequence of UniProt Q5XXA6 (whole entry, unmodified, looked up): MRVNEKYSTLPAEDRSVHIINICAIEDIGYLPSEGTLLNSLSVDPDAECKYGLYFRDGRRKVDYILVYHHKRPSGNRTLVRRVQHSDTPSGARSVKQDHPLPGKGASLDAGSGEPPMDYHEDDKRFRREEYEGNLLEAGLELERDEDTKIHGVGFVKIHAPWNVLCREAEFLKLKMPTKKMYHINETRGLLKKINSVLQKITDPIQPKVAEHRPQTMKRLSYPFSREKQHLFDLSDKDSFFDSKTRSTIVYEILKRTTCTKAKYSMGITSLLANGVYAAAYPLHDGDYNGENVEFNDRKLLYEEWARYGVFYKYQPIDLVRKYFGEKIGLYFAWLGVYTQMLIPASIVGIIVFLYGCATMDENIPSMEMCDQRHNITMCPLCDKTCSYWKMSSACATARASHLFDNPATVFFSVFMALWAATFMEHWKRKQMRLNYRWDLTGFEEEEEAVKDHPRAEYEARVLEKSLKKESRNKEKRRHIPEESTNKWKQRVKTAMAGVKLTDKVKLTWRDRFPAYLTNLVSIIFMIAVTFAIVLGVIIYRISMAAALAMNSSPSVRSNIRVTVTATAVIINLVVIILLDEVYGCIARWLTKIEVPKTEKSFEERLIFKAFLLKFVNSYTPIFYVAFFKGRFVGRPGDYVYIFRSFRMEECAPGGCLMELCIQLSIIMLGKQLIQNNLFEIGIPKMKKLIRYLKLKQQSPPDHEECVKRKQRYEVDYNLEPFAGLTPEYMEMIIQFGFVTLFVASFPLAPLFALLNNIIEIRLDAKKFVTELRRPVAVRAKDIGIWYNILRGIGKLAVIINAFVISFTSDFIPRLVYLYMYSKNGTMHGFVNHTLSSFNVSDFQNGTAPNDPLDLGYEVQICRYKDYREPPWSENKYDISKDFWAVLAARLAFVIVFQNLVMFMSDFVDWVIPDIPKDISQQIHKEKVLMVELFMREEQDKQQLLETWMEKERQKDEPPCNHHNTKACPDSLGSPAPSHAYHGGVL
ANO1 del476-501: Anoctamin-1 (ANO1, Homo sapiens, UniProt Q5XXA6, del476-501)
ANO1 del476-501/R541A: Anoctamin-1 (ANO1, Homo sapiens, UniProt Q5XXA6, del476-501/R541A)
It gave 0.62 for normalized current (ANO1 del476-501/F628A/F803A; chloride current, inhibitor; human; mutant, non-pore, F602A/F777A).
It gave 0.594 for normalized current (ANO1 del476-501; chloride current, inhibitor; human; wild type).
The normalized current was 0.603 and 0.605 and 0.585 and 0.655 and 0.636 and 0.638 (ANO1 del476-501/F628A/F803A; chloride current, inhibitor, whole-cell patch clamp; F602A/F777A non-pore mutant).
It gave 0.974 and 1.03 and 0.983 and 1 and 0.982 and 0.985 and 0.96 for normalized current (ANO1 del476-501/R541A; chloride current, inhibitor, whole-cell patch clamp; R515A pore mutant).
The normalized current was 0.587 and 0.596 and 0.55 and 0.619 (ANO1 del476-501; ion current, patch clamp; baseline: before drug).
For ANO1 del476-501/R541A; chloride current, inhibitor; human; pore mutant R515A: normalized current read 0.994.

Series 4 — read-out: enzyme activity; concentration: 10 µM
Structure (SMILES): Cc1sc(C(=O)NC2COC2)cc1-n1cc(NC(=O)Nc2c(F)cccc2Cl)cn1
MAP3K21: Mitogen-activated protein kinase kinase kinase 21 (MAP3K21, Homo sapiens, UniProt Q5TCX8)
Sequence of UniProt Q5TCX8 (whole entry, looked up): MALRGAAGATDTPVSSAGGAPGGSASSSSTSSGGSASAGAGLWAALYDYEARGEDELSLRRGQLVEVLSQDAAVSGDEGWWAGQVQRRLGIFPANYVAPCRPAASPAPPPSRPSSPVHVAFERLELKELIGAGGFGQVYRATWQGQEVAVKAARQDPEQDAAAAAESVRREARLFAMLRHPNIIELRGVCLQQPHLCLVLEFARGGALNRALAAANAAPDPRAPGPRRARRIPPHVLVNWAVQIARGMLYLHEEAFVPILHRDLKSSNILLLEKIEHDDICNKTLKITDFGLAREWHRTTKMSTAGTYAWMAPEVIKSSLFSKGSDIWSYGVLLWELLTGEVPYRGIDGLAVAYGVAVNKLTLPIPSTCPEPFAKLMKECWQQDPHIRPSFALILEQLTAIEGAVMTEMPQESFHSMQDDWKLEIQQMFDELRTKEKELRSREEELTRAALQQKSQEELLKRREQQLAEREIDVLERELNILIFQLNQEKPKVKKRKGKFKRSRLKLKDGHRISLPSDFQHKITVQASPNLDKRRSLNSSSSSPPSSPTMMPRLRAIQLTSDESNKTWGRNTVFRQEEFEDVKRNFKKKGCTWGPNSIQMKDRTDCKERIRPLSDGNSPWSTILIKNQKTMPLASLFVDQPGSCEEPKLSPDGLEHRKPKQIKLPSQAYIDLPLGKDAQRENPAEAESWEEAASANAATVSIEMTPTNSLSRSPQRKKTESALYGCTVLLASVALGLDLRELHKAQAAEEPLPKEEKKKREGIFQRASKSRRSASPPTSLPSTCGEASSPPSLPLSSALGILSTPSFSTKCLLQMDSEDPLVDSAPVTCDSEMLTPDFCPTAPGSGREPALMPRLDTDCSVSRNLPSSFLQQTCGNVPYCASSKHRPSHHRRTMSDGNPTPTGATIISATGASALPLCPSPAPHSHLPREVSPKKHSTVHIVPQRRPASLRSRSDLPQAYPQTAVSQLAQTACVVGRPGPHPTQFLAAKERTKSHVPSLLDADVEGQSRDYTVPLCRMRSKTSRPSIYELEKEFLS
Platelet-derived growth factor receptor alpha (PDGFRA, Homo sapiens, UniProt P16234); baseline: untreated control — remaining activity: 102%.
Serine/threonine-protein kinase TBK1 (TBK1, Homo sapiens, UniProt Q9UHD2); baseline: untreated control — remaining activity: 95.8%.
Serine/threonine-protein kinase 33 (STK33, Homo sapiens, UniProt Q9BYT3); baseline: untreated control — remaining activity: 87.5%.
For Serine/threonine-protein kinase Chk2 (CHEK2, Homo sapiens, UniProt O96017); baseline: untreated control: remaining activity read 93.8%.
The remaining activity was 96.7% (Microtubule-associated serine/threonine-protein kinase 3 (MAST3, Homo sapiens, UniProt O60307); inhibitor).
The remaining activity was 84.4% (Serine/threonine-protein kinase Nek2 (NEK2, Homo sapiens, UniProt P51955); baseline: untreated control).
Citron Rho-interacting kinase (CIT, Homo sapiens, UniProt O14578); baseline: untreated control — remaining activity: 97.6%.
It gave 83.9% for remaining activity (MAP3K21; baseline: untreated control).
The remaining activity was 103% (Tyrosine-protein kinase Lyn (LYN, Homo sapiens, UniProt P07948); baseline: untreated control).
For Mitogen-activated protein kinase kinase kinase kinase 5 (MAP4K5, Homo sapiens, UniProt Q9Y4K4); baseline: untreated control: remaining activity read 96.6%.
Tyrosine-protein kinase Fer (FER, Homo sapiens, UniProt P16591); baseline: untreated control — remaining activity: 89.5%.
The remaining activity was 90.4% (Calcium/calmodulin-dependent protein kinase type II subunit delta (CAMK2D, Homo sapiens, UniProt Q13557); baseline: untreated control).
For MAP3K21; inhibitor: remaining activity read 85.2%.

Repeated from above (series 4):
The remaining activity was 84.4% (Serine/threonine-protein kinase Nek2 (NEK2, Homo sapiens, UniProt P51955); baseline: untreated control).
Citron Rho-interacting kinase (CIT, Homo sapiens, UniProt O14578); baseline: untreated control — remaining activity: 97.6%.
It gave 83.9% for remaining activity (MAP3K21; baseline: untreated control).
The remaining activity was 103% (Tyrosine-protein kinase Lyn (LYN, Homo sapiens, UniProt P07948); baseline: untreated control).
For Mitogen-activated protein kinase kinase kinase kinase 5 (MAP4K5, Homo sapiens, UniProt Q9Y4K4); baseline: untreated control: remaining activity read 96.6%.
